# Measurements collected from several papers.
# Parts stem from different laboratories: compare values within a part only.

# Study 1
# Target: Ras GTPase-activating protein-binding protein 1, RRM domain (G3BP1, Homo sapiens, UniProt Q13283)
# Sequence of UniProt Q13283 (whole entry, looked up): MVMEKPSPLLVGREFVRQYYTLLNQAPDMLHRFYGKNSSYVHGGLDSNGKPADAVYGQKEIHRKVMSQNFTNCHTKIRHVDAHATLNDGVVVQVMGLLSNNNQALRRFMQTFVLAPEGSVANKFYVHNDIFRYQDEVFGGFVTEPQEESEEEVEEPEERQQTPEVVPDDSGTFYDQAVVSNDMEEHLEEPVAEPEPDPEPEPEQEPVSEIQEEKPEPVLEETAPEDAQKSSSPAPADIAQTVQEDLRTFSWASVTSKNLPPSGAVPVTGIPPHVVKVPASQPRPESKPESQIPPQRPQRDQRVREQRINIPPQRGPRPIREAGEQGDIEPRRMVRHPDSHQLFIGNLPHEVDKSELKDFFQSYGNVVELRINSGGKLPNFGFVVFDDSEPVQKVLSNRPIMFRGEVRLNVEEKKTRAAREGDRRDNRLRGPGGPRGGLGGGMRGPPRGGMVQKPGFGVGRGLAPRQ
# Method: RNA Bind-n-Seq
# Molecule type: RNA
# Sample: in vitro
# Tested at: 1 µM
# Setting: whole 134-nt RNA, ends assumed
# Together with: 150 mM KCl
# Relative to: input library
# Direction: higher = stronger binding
Oligonucleotide,log2 enrichment
GGGAGUUCUACAGUCCGACGAUCGUCCUGUGCUACACAUCGUAUGUACCGAAUCGGGGUUUUGGGGUUUUGGGUUUUGGGGAAAGUAUUAUGUUACGCCGUUCGGAUCUGCACUGGAAUUCUCGGGUGUCAAGG,0.349
GGGAGUUCUACAGUCCGACGAUCUAACUUUAAAGGAGGAUCUGAUGGAUAUGGCAGUGGACGUGGAUUUGGGGAUGGCUAUAAUGGGUAUGGAGGAGGACCUGGAGGUGGCAAUGGAAUUCUCGGGUGUCAAGG,-0.731
GGGAGUUCUACAGUCCGACGAUCCUCAAGUCCUGUGCUACACAUCGUAUGUACCGAAUCGGCCGGGGCCGGCCGGGGAAAGUAUUAUGUUACGCCGUUCGGAUCUGCACUUCCUGGAAUUCUCGGGUGUCAAGG,-0.217
GGGAGUUCUACAGUCCGACGAUCGCAGGAAGUAAAAACAAAUGGAAAUGCUUCGGAUAGUGGCAGGGGUGGGGGUGGCUAAGGAAAGGGUGGGAUGGGAGUGGGUAAAGAGUUUGGAAUUCUCGGGUGUCAAGG,0.851

# Study 2
# Target: Histone acetyltransferase KAT6A, winged helix 1, GST fusion (KAT6A, Homo sapiens, UniProt Q92794, residues 1-85)
# Method: protein binding microarray
# Molecule type: double-stranded DNA, one strand shown
# Sample: in vitro
# Tested at: not given
# Setting: 8-mer, flanks averaged, mean of 2 arrays, mostly near background
# Relative to: not given
# Direction: higher = stronger binding
# Residues (chain): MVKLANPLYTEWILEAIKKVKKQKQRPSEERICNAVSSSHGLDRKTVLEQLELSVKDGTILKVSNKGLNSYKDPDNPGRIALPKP
Oligonucleotide,E-score
CGACTGCA,-0.0759
GGGTCAAC,-0.0905
ACCAGTCA,-0.0575
GCAAATCC,-0.0185
ATCGACAT,-0.0648

# Study 3
# Target: PABPC1L2, full length, GST fusion (mouse, UniProt A0ABA7IW68)
# Method: RNAcompete
# Molecule type: RNA
# Sample: in vitro
# Tested at: 20 nM
# Setting: 7-mer, probes averaged, single round
# Relative to: mean of 7-mers
# Direction: higher = stronger binding
# Construct (chain): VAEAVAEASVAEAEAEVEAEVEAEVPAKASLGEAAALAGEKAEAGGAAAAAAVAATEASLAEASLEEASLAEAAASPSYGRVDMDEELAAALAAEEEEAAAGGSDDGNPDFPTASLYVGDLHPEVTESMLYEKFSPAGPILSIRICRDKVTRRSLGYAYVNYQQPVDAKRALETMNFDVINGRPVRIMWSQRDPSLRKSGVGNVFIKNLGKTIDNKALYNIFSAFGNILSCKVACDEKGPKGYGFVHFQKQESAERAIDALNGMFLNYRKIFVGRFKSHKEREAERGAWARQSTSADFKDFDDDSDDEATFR
Oligonucleotide,7-mer Z-score
GUGCUGA,0.046
CGAGUCA,-0.267
CCCCAUA,-0.322
CGACAAC,-0.0536
ACUAUGA,-0.0681

# Further values, each from its own experiment
Molecule,target,test,system,conditions,scale,endpoint,value
"PhoQ, residues 284 288 289 292 302 303 TTCLQL","PhoP, residues 12 14 15 18 19 SYFRT (Escherichia coli, UniProt P23836)","Sort-seq, item: YFP reporter",E. coli,"PhoQ-PhoP variant library, together with: 10 µM Mg2+","relative to: high Mg2+ state, higher = stronger signaling",fold induction,0.442

# Excerpt of the above (study 2):
Oligonucleotide,E-score
GCAAATCC,-0.0185
ACCAGTCA,-0.0575
